Results gathered from unrelated publications.
± gives the spread as reported. Converted amounts (≈) assume the structure as drawn.

For COc1ccc(C(=O)Nc2ccc(N3CCN(C(=O)c4cnccn4)CC3)nc2)cc1, the IC90 was over 64 µM (Mycobacterium tuberculosis; bacterial growth; H37Ra-lux; 168 h).
CN(CCOc1ccccc1)c1ncnc2[nH]ccc12 has a remaining activity of 39% (Lassa mammarenavirus; viral replication; Huh-7; 10 µM, 72 h).
O=C1c2c(O)cccc2Cc2cccc(O)c21 gave an EC50 of over 100 µM (SARS-CoV-2; viral replication, high-content imaging screen; cell-based).
For COc1ccc(C[C@@H]2c3cc(Oc4cc(C[C@@H]5c6cc(O)c(OC)cc6CCN5C)ccc4O)c(OC)cc3CCN2C)cc1, the inhibition was 93.3% (Severe acute respiratory syndrome coronavirus 2; cytopathic effect, inhibitor; Vero C1008; 100 µM).
With CCN(CC)CCNC(=O)c1[nH]c2ccccc2c1Sc1ccc(Cl)cc1 the maximum response was 91.2% (SARS-CoV-2; cytopathic effect; USA_WA1/2020; retest, 8-point, duplicates).
O=C(/C=C/C1CCCCC1)Nc1ncc(Cc2ccccc2)s1 gave an MIC of over 20 µM (Histoplasma capsulatum; microbial growth).
The EC50 of O=C1c2c(O)c(=O)ccn2N([C@@H]2c3ccccc3SCc3c2ccc(F)c3F)[C@@H]2COCCN12 is reported as 0.00032 ± 7e-05 µM (Influenza A virus; viral replication, plaque reduction; A(H7N7); mean).
Cc1nc2n(n1)CC(=O)N[C@@H](C(C)C)CN(C(=O)c1cn[nH]c1)CC(=O)N[C@@H](CC(C)C)c1nc(cs1)C(=O)N[C@H]2Cc1ccccc1 has a remaining activity of 92% (Lassa mammarenavirus; viral replication; Huh-7; 10 µM, 72 h).
CNCCN(C)c1nc(NC(C)c2ccccc2)c2ccccc2n1 (stereo not drawn) has an AC50 of 6.31 µM (SARS-CoV-2; cytopathic effect; USA_WA1/2020).
The remaining activity of CC(C)Cn1c(CN(C)Cc2ncc[nH]2)nc2ccccc21 is reported as 42% (Lassa mammarenavirus; viral replication; Huh-7; 10 µM, 72 h).
The MIC90 of CCCCCCCCCCCCN(C)C(=O)CP(=O)(O)O is reported as 1.56 mg/L (≈ 4.85 µM) (Bacillus anthracis; Davis).
The EC50 of CN1CCCC(CC2c3ccccc3Sc3ccccc32)C1 (stereo not drawn) is reported as over 100 µM (SARS-CoV-2; viral replication, high-content imaging screen; cell-based).
With CN(C)c1cccc(C(=O)NCC2CCN(c3cc(-c4ccc(Cl)cc4)n[nH]3)CC2)c1 the efficacy was 74.4% (SARS-CoV-2; cytopathic effect; USA_WA1/2020; round 2, 5-point).
The remaining activity of CCSc1ncc(CN2CCN(c3nc(C)ncc3C)CC2)cn1 is reported as 60% (Lassa mammarenavirus; viral replication; Huh-7; 10 µM, 72 h).
O=C(NCCCN1CCCCC1)c1cc(Sc2ccc(Cl)cc2)nc2ccccc12 has an efficacy of 108% (SARS-CoV-2; cytopathic effect, cell-based CPE; USA_WA1/2020; round 2, 5-point dilution).
For Cc1nc(C(=O)NCCn2ncc3ccccc3c2=O)cs1, the remaining activity was 14% (Lassa mammarenavirus; viral replication; Huh-7; 10 µM, 72 h).
For CNc1nc(N)ncc1-c1cn([C@@H]2O[C@H](CO)[C@@H](O)[C@@]2(C)F)cn1, antiviral activity read “inactive” (MERS coronavirus; concentration not given).
With COc1ccc(Nc2cc(C(=O)NCCCN(C)Cc3ccccc3)c3ccccc3n2)cc1 the efficacy was 73.9% (SARS-CoV-2; cytopathic effect, cell-based CPE; USA_WA1/2020; round 2, 5-point dilution).
With CCc1c(C(=O)C(N)=O)c2c(OCC(=O)O)cccc2n1Cc1ccccc1 the viability difference was -63.9% (Daboia russelii; C2C12; 100 µM, added: Daboia russelii venom PB; reference: venom alone).
The Emax of O=C1NCCCOc2cccc(c2)C2c3ccc(cc3CCN2Cc2ncc[nH]2)Oc2ccc(O)c1c2 (stereo not drawn) is reported as 93.9% (Lassa mammarenavirus; viral replication; Huh-7; concentration not given).
For CCN(CC)CCCNC(=O)c1ccc(-c2nc(CN3CCc4ccccc43)c(C)o2)cc1, the maximum response was 97.2% (SARS-CoV-2; cytopathic effect; USA_WA1/2020; retest, 8-point, duplicates).
For COc1cc2c3cc1Oc1cc(ccc1O)CC1c4c(cc(OC)c(O)c4Oc4ccc(cc4)CC3N(C)CC2)CCN1C (stereo not drawn), the EC50 was over 10 µM (SARS-CoV-2; viral replication, GFP plate reader screen; cell-based).
CNC(=O)[C@@H](NC(=O)[C@H](CC(C)C)[C@H](O)C(=O)NO)C(C)(C)C gave a survival of 0% (Daboia russelii; mouse; intravenous, 120 µg/mouse, 24 h, drug mixture, added: RJ venom 2.5 x LD50 preincubated).
With Cc1cc2cc(Oc3ccnc(Nc4cccc(CS(=O)(=O)NCCN(C)C)c4)n3)ccc2[nH]1 the EC50 was over 10 µM (SARS-CoV-2; viral replication, GFP plate reader screen; cell-based).
O=C(Nc1ccc(N2CCCN(C(=O)c3cnccn3)CC2)nc1)c1ccc(Cl)cc1 gave an IC90 of over 64 µM (Mycobacterium tuberculosis; bacterial growth; H37Ra-lux; 168 h).
CN1CCN(C(c2ccccc2)c2ccc(Cl)cc2)CC1 (stereo not drawn) gave an IC50 of 3.2 µM (Zaire ebolavirus; HFF-1, Kikwit; 48 h).
Clc1ccc(-c2nn(Cc3ccccc3)c3c2CCNCC3)cc1 gave an EC50 of over 25.1 µM (SARS-CoV-2; viral replication, high-content imaging screen; BetaCov/Belgium/GHB-03021/2020; cell-based).
CCc1ccc(Sc2cc(C(=O)NCCCN3CCC(C)CC3)c3ccccc3n2)cc1 has an efficacy of 62.4% (SARS-CoV-2; cytopathic effect; USA_WA1/2020; round 1, 5-point).
Clc1ccc(C(c2ccccc2)N2CCN(C/C=C/c3ccccc3)CC2)cc1 (stereo not drawn) gave an EC50 of over 100 µM (SARS-CoV-2; viral replication, GFP plate reader screen; cell-based).
CC(C)=CCc1c(O)ccc(C(=O)/C=C/c2ccc(O)cc2)c1O gave a CPE inhibition of 0% (SARS-CoV-2; viral replication; Vero E6; 12.5 µM; reference: mean of replicates).
COc1ccc2c(c1)N(C[C@H](C)CN(C)C)c1ccccc1S2 has an EC50 of 11.8 µM (SARS-CoV-2; viral replication, GFP plate reader screen; BetaCov/Belgium/GHB-03021/2020; cell-based).
For Cc1ccccc1C1(O)CCN(C(=O)c2cnn[nH]2)C1 (stereo not drawn), the remaining activity was 39% (Lassa mammarenavirus; viral replication; Huh-7; 10 µM, 72 h).
The maximum response of CCOc1ccc(CN2CCN(Cc3ccc4c(c3)c3ccccc3n4CC)CC2)cc1 is reported as 65.8% (SARS-CoV-2; cytopathic effect; USA_WA1/2020; round 2, 5-point).
With Nc1ncnc2c([C@@H]3N[C@H](CO)[C@@H](O)[C@H]3O)c[nH]c12 the inhibition was 0% (Lassa mammarenavirus; viral replication; HeLa, Josiah; 0.8 µM).
For O=c1nc(NO)ccn1[C@@H]1O[C@H](CO)[C@@H](O)[C@H]1O, the EC90 was 12.2 ± 12.4 µM (SARS-CoV-2 Washington strain; viral replication, qRT-PCR; Caco-2).
The inhibition of C=C[C@@](C)(/C=C/c1ccc(O)cc1)CCC=C(C)C is reported as 0% (Severe acute respiratory syndrome coronavirus 2; cytopathic effect; Vero C1008; 1.562 µM).
For CC(C)(C)c1ccc(CN2CCN(C(c3ccccc3)c3ccc(Cl)cc3)CC2)cc1 (stereo not drawn), the selectivity index was 4 (Ebola virus Zaire; pseudovirus entry; A549; reference: CC50 over IC50).
CCC(=O)c1ccc2c(c1)N(CCCN1CCN(CCO)CC1)c1ccccc1S2 gave an EC50 of over 100 µM (SARS-CoV-2; viral replication, GFP plate reader screen; cell-based).
The remaining activity of CC1=CCN(S(=O)(=O)c2cccc(C(=O)NC(C)c3cnn(C)c3)c2)CC1 (stereo not drawn) is reported as 49% (Lassa mammarenavirus; viral replication; Huh-7; 10 µM, 72 h).
